Published values pooled from the literature.
Parts stem from different laboratories: compare values within a part only. “And” joins repeats or separate records; there may be more than shown.
Chain of UniProt Q12851 (whole entry, looked up): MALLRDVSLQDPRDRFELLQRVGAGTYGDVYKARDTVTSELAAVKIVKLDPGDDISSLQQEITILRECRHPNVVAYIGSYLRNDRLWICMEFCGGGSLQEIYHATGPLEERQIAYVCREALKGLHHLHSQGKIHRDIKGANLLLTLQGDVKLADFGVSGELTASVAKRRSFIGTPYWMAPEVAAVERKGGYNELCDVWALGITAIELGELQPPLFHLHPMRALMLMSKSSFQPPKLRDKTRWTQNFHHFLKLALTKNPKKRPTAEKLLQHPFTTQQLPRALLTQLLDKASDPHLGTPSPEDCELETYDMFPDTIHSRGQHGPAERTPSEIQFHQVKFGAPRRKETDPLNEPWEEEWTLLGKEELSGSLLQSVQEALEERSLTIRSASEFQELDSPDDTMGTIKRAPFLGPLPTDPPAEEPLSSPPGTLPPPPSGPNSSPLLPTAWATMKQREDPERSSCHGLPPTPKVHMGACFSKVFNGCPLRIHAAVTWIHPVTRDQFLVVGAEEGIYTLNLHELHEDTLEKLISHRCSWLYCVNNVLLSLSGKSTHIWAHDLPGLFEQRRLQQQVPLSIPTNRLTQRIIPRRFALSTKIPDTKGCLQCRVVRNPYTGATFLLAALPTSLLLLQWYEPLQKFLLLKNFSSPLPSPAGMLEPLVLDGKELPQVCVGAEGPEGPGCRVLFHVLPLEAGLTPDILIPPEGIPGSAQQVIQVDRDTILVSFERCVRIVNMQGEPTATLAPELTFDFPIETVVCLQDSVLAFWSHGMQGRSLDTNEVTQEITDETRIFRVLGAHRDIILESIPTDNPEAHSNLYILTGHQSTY
Chain of UniProt Q5S007 (whole entry, looked up): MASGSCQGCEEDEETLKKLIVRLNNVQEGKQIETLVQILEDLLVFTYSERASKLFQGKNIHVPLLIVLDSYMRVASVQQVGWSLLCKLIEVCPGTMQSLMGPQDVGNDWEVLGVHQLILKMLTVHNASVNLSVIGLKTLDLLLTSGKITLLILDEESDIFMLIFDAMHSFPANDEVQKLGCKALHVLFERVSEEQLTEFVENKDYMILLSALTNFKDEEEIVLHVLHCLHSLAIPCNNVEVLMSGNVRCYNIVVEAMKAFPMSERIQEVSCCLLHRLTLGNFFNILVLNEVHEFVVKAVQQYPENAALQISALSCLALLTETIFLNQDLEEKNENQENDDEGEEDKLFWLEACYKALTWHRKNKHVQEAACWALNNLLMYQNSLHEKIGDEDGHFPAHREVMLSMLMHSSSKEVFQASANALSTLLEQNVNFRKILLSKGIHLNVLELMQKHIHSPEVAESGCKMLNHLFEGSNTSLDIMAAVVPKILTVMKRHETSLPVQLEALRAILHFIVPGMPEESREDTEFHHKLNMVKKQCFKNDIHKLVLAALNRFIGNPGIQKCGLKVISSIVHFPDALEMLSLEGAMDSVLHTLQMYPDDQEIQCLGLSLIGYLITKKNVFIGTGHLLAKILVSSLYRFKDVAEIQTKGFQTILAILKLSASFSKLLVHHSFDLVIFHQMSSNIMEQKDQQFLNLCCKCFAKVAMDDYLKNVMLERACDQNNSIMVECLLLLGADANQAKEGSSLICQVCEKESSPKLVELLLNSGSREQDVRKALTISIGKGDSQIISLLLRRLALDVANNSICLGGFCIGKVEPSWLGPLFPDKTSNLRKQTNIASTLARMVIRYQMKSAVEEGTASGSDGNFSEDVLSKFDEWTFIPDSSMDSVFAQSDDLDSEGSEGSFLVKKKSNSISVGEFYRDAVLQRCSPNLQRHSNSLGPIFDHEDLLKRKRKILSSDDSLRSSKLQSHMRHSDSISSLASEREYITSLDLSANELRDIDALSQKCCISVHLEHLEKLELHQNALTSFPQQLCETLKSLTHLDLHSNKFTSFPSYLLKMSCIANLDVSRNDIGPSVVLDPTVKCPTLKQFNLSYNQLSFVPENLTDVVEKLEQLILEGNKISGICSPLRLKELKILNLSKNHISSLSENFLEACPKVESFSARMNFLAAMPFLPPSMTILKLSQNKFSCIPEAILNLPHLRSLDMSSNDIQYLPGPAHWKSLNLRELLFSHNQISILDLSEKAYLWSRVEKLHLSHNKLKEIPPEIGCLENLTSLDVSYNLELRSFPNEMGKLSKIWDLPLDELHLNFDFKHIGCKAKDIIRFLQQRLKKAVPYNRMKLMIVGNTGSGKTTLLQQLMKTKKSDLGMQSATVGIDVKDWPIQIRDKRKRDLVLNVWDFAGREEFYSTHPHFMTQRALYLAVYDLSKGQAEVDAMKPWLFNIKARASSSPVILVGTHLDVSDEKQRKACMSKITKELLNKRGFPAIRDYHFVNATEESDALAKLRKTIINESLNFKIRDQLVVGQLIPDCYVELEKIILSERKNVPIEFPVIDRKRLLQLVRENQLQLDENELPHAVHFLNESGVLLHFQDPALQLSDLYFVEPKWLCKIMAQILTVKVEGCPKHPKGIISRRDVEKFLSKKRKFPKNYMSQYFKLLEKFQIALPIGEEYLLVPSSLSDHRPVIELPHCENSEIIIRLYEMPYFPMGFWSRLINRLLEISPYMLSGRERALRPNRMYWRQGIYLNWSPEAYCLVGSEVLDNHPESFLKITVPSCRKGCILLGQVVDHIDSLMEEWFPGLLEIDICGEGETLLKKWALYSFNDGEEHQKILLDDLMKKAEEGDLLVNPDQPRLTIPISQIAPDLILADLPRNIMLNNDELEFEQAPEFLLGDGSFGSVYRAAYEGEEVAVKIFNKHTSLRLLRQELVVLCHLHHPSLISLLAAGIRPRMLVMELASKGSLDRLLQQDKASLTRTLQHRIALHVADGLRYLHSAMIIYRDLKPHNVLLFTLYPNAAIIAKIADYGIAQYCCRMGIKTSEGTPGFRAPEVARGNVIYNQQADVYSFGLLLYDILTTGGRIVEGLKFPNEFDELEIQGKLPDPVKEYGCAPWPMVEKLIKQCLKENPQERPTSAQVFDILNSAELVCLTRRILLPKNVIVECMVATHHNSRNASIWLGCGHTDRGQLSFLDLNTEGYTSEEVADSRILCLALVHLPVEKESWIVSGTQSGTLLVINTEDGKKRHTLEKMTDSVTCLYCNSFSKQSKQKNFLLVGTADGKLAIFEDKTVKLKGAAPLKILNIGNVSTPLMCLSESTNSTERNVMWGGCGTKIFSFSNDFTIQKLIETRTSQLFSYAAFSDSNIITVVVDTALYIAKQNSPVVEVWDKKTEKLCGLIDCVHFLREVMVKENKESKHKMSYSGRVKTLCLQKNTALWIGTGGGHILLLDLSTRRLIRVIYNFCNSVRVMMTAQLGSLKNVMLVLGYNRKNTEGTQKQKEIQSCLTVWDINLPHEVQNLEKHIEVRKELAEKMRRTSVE
Chain of UniProt P10721 (whole entry, looked up): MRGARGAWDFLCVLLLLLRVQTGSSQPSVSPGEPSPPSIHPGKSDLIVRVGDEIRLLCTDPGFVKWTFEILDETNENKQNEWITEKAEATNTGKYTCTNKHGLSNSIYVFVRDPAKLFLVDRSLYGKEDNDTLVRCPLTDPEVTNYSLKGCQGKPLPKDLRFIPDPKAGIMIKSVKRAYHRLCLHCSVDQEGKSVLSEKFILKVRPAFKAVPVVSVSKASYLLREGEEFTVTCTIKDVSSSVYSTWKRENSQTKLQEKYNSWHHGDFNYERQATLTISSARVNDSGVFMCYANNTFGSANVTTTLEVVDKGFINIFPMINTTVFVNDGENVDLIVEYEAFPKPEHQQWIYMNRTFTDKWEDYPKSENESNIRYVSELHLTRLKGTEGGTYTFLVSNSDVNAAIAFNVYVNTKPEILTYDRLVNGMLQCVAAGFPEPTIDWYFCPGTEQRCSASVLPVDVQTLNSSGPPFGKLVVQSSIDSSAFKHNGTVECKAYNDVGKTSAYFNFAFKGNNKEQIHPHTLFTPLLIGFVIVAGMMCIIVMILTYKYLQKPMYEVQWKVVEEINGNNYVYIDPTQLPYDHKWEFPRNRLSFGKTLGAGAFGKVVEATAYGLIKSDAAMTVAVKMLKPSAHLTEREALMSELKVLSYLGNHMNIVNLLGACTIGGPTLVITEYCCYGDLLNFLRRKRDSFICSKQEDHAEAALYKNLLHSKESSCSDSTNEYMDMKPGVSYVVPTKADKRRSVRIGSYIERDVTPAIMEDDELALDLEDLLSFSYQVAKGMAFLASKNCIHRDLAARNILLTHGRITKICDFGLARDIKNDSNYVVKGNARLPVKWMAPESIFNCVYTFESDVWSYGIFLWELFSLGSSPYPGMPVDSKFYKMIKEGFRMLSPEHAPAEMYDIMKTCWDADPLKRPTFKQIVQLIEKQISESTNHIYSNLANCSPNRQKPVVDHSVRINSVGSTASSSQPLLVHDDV

Set 1 — observed: enzyme activity; mode: inhibitor; concentration: 0.5 µM; baseline: control
Structure (SMILES): COc1ccc(S(=O)(=O)N(CCO)c2ccccc2CN(C)CC=Cc2ccc(Cl)cc2)cc1
target	remaining activity [%]
STK38 (Homo sapiens, UniProt Q15208)	98.3
LRRK2 (Homo sapiens, UniProt Q5S007)	101
PRKCD (Homo sapiens, UniProt Q05655)	94.3
MAP2K6 (Homo sapiens, UniProt P52564)	108
MKNK2 (Homo sapiens, UniProt Q9HBH9)	102
KIT (Homo sapiens, UniProt P10721)	103
NEK4 (Homo sapiens, UniProt P51957)	98.7
MAPK12 (Homo sapiens, UniProt P53778)	98.9
MAP4K2 (Homo sapiens, UniProt Q12851)	92.6
MAPK13 (Homo sapiens, UniProt O15264)	102
EPHA5 (Homo sapiens, UniProt P54756)	98.1

Set 2 — observed: binding; method: radioligand binding; concentration: 10 µM
Target: 5-hydroxytryptamine receptor 7 (HTR7, Homo sapiens, UniProt P34969)
Chain of UniProt P34969 (whole entry, looked up): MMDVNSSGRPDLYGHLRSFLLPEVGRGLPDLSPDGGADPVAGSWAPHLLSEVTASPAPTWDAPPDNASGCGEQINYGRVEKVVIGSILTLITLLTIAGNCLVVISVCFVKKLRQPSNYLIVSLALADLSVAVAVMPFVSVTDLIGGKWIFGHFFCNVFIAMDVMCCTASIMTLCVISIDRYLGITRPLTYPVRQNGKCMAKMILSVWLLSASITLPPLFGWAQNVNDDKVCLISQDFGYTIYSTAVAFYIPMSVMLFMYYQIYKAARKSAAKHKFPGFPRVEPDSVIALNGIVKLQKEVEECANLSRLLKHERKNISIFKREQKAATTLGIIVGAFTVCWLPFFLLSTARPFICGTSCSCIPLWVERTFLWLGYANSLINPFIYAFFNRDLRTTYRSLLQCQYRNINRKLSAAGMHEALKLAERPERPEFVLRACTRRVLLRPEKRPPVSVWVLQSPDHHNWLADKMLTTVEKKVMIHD
Compound	inhibition [%]
O=C(O)c1cc(-c2ccc(C3CCNCC3)cc2)c2ccc(-c3ccc(C(F)(F)F)cc3)cc2c1	17.8
Cc1cc(-n2nc(Cc3cc(F)cc(C(F)(F)F)c3)nc2C)ccc1C(N)=O	21.4
CC(C)(O)c1cncc(-c2nc3ccc(F)cc3n2C2CC2)c1	-2.18
CNC(=O)Nc1ccc2c(c1)[C@]1(CC2)OC(=O)N(CC(=O)N(Cc2ccc(F)cc2)[C@@H](C)C(F)(F)F)C1=O	-13
CC(=O)c1c(NS(C)(=O)=O)c2cc(-c3ccc(Cl)cc3)c(-c3ccc(Cl)cc3Cl)nc2n(C)c1=O	-18
CC(=O)Nc1nc(CN2CCC[C@H](Cc3cc(C)nc(C)c3)C2)cs1	2.58
O=C(Nc1cnc(Oc2ccc(F)cc2)nc1)N1CCc2ncccc2[C@@H]1c1ccc(F)cc1	2.63
Cc1c(N2CCCC2)nc2ccc(Br)cc2c1C(=O)NC[C@H](CCC(=O)O)c1ccccc1Cl	0.4
Cc1cc(C)c(-n2ccn3nc(-c4cccnc4)cc23)cc1NC(=O)c1cc(C#N)cc(S(F)(F)(F)(F)F)c1	-3.4
CC(=O)Nc1c(F)cc(C(=O)N[C@H]2CC[C@H](O)CC2)cc1O[C@@H](C)c1ccccc1	17.6
O=C1CCc2cc(Nc3cc(OC4CCOCC4)c([N+](=O)[O-])cc3Cl)ccc2N1	12.3

Set 3 — host: mouse; matrix: microsomes or S9; concentration: 2 µM; time: 0.5 h
SMILES	remaining compound [%]
COc1cc2c(c(OC)c1)C1(CC(C)(C)N2)CC(C)(C)Nc2cc(OC)cc(OC)c21	59.3
OC1(c2ccc(Br)cc2)CCNCC1	23
Nc1n[nH]c2nc(N3CCCC3)c3c(c12)CCN(C1CCCCC1)C3	56
COc1ccc2c3c1O[C@H]1C[C@@H](O)C=C[C@]31C[C@H](C)N(Cc1ccc(Br)cc1)C2	47
O=C1CCCC2=C1C(c1ccco1)Nc1ccc3ccccc3c12 (stereo not drawn)	11.7
Cn1c(N2CCN(C(=O)c3cc4cc(Cl)ccc4[nH]3)CC2)cc(=O)n(C)c1=O	55
CCCn1c(=O)c2c(nc3n2C(C)C(C)=NN3CCCO)n(C)c1=O (stereo not drawn)	12.3

Other studies, line by line
SMILES	method	host	matrix	route	dose	quantity	value
COc1ccc(-c2c(Nc3ccccn3)[nH]c3c(C4=CCCCC4)c(-c4ccccc4)nn3c2=O)cc1	LC-MS/MS	human	plasma	oral	50 mg once daily	apparent steady-state clearance CL/F	1510 mL/h and 1430 mL/h and 1550 mL/h
